Measured values of several laboratories.
Numbered parts are unrelated; each lists some results of a single study. Values joined by “and” are separate records of one study, mostly repeats; a detail may differ.
UniProt P23458, sequence (whole entry, looked up): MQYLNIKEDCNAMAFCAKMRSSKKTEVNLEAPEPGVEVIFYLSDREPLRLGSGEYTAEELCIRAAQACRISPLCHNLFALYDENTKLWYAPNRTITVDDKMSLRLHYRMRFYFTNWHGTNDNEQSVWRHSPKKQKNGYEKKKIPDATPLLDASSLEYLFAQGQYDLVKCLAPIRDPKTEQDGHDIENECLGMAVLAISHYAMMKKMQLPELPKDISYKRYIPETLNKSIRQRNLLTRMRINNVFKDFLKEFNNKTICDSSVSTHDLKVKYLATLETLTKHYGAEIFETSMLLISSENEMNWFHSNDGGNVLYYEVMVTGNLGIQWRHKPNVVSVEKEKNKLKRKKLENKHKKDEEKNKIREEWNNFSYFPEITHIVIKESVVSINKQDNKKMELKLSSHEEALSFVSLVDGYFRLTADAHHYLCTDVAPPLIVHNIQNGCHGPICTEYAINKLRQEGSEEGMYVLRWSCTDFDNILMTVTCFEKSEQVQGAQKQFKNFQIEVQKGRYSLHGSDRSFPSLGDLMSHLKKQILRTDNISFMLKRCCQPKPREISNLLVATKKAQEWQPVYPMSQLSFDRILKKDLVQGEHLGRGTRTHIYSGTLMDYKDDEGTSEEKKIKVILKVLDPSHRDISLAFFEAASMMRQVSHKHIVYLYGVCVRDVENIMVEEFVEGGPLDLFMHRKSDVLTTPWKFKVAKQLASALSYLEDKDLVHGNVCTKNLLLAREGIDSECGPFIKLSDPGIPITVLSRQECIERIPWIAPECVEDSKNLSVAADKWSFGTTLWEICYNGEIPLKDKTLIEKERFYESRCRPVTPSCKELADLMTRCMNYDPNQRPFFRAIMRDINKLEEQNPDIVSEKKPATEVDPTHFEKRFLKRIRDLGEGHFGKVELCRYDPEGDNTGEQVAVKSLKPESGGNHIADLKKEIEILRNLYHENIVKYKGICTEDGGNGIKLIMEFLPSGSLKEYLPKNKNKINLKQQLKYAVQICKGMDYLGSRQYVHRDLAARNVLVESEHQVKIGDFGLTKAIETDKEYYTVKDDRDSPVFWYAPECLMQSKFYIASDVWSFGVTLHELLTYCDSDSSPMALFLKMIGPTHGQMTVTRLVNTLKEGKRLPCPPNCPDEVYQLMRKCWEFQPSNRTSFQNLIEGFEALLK
UniProt Q9H422, sequence (whole entry, looked up): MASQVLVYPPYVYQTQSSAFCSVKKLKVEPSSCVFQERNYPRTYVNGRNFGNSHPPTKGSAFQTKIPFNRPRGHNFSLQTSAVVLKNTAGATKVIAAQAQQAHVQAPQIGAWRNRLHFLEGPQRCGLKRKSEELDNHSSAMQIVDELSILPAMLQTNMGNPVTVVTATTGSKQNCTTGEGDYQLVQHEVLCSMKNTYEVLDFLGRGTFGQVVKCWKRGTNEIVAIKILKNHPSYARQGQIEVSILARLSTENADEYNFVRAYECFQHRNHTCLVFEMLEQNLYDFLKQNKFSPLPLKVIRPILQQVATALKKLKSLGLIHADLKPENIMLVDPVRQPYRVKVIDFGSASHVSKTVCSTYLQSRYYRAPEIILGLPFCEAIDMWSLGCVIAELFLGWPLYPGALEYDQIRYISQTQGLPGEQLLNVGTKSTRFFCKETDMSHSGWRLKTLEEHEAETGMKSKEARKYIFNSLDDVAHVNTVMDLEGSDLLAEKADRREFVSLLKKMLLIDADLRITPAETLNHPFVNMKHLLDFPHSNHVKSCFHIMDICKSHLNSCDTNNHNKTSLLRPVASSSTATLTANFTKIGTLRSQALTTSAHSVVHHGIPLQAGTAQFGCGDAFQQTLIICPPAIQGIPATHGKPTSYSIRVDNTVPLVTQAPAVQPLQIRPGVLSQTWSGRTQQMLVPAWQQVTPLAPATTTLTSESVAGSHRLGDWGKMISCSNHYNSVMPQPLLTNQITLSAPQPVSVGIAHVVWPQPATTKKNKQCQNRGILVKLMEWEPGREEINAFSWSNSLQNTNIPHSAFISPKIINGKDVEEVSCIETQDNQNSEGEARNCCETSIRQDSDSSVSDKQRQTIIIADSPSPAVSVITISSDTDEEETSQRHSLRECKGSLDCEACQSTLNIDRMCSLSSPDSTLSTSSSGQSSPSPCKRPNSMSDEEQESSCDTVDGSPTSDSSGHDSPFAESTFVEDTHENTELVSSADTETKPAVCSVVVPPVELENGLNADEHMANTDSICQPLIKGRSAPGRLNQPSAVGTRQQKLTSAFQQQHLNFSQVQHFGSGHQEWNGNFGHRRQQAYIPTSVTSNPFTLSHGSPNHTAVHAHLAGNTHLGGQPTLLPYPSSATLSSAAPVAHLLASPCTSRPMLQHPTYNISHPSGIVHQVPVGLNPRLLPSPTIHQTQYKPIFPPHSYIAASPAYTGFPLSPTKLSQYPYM
UniProt O14578, sequence (whole entry, looked up): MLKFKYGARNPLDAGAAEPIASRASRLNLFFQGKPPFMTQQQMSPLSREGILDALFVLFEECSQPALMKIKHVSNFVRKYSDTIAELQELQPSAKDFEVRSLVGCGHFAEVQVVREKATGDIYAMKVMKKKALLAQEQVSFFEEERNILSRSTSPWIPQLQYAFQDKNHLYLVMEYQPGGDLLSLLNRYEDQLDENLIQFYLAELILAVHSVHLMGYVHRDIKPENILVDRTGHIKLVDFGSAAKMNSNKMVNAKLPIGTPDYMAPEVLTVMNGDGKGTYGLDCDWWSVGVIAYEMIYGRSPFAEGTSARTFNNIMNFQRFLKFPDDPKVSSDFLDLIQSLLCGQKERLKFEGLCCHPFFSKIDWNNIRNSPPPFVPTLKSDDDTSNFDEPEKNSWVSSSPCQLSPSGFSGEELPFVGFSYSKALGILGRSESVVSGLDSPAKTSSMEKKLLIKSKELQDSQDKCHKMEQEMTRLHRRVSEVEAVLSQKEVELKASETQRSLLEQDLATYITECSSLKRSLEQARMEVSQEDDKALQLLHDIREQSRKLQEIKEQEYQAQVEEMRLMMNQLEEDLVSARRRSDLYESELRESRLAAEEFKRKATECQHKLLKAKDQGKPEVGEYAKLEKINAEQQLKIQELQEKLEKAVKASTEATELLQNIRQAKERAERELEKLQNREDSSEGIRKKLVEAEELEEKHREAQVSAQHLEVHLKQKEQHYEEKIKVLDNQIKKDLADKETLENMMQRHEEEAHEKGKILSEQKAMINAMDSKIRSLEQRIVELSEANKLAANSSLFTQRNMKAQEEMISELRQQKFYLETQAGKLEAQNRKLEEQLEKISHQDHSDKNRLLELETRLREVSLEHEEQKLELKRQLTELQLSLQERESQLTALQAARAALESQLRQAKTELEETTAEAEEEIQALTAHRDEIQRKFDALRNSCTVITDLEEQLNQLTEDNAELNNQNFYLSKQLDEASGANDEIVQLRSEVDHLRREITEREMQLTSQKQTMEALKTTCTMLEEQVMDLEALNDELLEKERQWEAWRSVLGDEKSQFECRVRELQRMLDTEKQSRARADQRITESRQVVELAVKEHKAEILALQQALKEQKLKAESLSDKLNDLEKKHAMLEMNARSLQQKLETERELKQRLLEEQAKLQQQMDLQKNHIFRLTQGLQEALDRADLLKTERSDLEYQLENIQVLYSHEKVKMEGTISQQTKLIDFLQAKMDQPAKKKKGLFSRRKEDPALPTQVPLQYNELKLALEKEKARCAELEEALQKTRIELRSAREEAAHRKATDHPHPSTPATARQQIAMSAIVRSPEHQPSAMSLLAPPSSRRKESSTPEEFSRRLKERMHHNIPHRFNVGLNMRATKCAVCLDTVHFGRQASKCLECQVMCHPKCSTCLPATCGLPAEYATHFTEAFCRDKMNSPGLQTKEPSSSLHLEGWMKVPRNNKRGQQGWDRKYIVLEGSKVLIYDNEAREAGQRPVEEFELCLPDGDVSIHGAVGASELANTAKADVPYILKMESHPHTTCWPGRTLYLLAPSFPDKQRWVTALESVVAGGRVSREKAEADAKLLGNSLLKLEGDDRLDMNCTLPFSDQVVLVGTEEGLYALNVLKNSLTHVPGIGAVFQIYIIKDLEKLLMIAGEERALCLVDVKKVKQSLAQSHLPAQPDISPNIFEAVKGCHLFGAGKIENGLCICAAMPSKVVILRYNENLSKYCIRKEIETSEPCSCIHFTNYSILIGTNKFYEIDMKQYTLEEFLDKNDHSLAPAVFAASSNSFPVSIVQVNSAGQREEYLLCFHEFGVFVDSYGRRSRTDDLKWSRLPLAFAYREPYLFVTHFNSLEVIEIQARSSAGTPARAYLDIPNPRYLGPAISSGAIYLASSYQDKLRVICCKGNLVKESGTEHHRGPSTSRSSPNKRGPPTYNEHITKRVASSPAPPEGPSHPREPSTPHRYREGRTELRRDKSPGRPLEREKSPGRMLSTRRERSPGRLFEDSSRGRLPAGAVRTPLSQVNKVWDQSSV

Series 1
SMILES: CC(=O)N[C@@H](Cc1c[nH]c2ccccc12)C(=O)N[C@@H](CCC(=O)C=[N+]=[N-])C(=O)OC(C)C
Technique: flow cytometry
Dose: dose not given
Baseline: vehicle
test	system	relative MFI
refers to: CD69	CD8+ tumour-infiltrating lymphocytes, mouse, MC38-OVA tumour	1.49
refers to: CD127	mice bearing MC38-OVA tumours, tumour-infiltrating CD8+ T cells	1.25
refers to: PD1	mice bearing MC38-OVA tumours, tumour-infiltrating CD8+ T cells	1.86
refers to: TBET	CD8+ tumour-infiltrating lymphocytes, mouse, MC38-OVA tumour	1.31
refers to: TCF1	mice bearing MC38-OVA tumours, tumour-infiltrating CD8+ T cells	1.42

Series 2
Target: MAP kinase-interacting serine/threonine-protein kinase 1 (MKNK1, Homo sapiens, UniProt Q9BUB5)
UniProt Q9BUB5, sequence (whole entry, looked up): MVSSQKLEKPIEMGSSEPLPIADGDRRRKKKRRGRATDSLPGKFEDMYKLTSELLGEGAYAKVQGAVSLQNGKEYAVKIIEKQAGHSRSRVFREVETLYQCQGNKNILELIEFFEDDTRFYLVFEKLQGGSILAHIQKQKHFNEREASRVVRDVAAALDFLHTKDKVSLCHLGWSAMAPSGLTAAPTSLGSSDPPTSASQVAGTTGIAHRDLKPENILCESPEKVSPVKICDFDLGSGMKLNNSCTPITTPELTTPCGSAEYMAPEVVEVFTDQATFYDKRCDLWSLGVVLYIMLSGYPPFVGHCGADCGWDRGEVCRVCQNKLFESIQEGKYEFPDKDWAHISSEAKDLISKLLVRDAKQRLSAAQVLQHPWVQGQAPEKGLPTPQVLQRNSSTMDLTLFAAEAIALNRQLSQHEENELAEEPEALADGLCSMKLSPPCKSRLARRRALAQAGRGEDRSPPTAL
Effect on: enzyme activity
Action: inhibitor
Concentration: 0.5 µM
Baseline: control
SMILES	remaining activity [%]
O=C(c1cc2cc(O)ccc2[nH]1)c1cc2cc(O)ccc2[nH]1	83.6
O=c1cc(N2CCOCC2)oc2c(-c3ccccc3)cccc12	103
O=C1NC(=O)c2c1c1c3ccccc3[nH]c1n1cncc21	56.3
Cc1cc(Nc2cc(N3CCN(C)CC3)nc(Sc3ccc(NC(=O)C4CC4)cc3)n2)[nH]n1	92.8
O=C1Cc2c([nH]c3ccc(Br)cc23)-c2ccccc2N1	98.4

Series 3
Structure (SMILES): O=C(NCCCC1CCCCC1)c1ccc(CNC(=O)c2cnn(-c3ccccc3)c2C(F)(F)F)cc1
Concentration: 0.1 µM
target	test	remaining binding [%]
Cyclin-G-associated kinase (GAK, Homo sapiens, UniProt O14976)	cell-free assay, competition with immobilised ligand	100
Serine/threonine-protein kinase B-raf (BRAF, Homo sapiens, UniProt P15056, V600E)	cell-free assay, competition with immobilised ligand	100
Tyrosine-protein kinase JAK1, JH2 (JAK1, Homo sapiens, UniProt P23458)	cell-free assay, competition with immobilised ligand	89
Calcium/calmodulin-dependent protein kinase kinase 2 (CAMKK2, Homo sapiens, UniProt Q96RR4)	cell-free assay, competition with immobilised ligand	100
Myosin light chain kinase, smooth muscle (MYLK, Homo sapiens, UniProt Q15746)	cell-free assay, competition with immobilised ligand	100
5'-AMP-activated protein kinase catalytic subunit alpha-2 (PRKAA2, Homo sapiens, UniProt P54646)	cell-free assay, competition with immobilised ligand	100
Aurora kinase C (AURKC, Homo sapiens, UniProt Q9UQB9)	cell-free assay, competition with immobilised ligand	100
Citron Rho-interacting kinase (CIT, Homo sapiens, UniProt O14578)	cell-free assay, competition with immobilised ligand	86
Tyrosine-protein kinase JAK1, JH1 (JAK1, Homo sapiens, UniProt P23458)	cell-free assay, competition with immobilised ligand	100
Non-receptor tyrosine-protein kinase TYK2, JH2 (TYK2, Homo sapiens, UniProt P29597)	cell-free assay, competition with immobilised ligand	100
Dual specificity mitogen-activated protein kinase kinase 7 (MAP2K7, Homo sapiens, UniProt O14733)	cell-free assay, competition with immobilised ligand	100
Homeodomain-interacting protein kinase 3 (HIPK3, Homo sapiens, UniProt Q9H422)	cell-free assay, competition with immobilised ligand	88
Serine/threonine-protein kinase 32A (STK32A, Homo sapiens, UniProt Q8WU08)	cell-free assay, competition with immobilised ligand	76
Cyclin-dependent kinase-like 1 (CDKL1, Homo sapiens, UniProt Q00532)	cell-free assay, competition with immobilised ligand	80
Serine/threonine-protein kinase SIK1 (SIK1, Homo sapiens, UniProt P57059)	competition binding	91
Calcium/calmodulin-dependent protein kinase type 1B (PNCK, Homo sapiens, UniProt Q6P2M8)	cell-free assay, competition with immobilised ligand	79
RAC-gamma serine/threonine-protein kinase (AKT3, Homo sapiens, UniProt Q9Y243)	cell-free assay, competition with immobilised ligand	97
Calcium/calmodulin-dependent protein kinase type II subunit beta (CAMK2B, Homo sapiens, UniProt Q13554)	cell-free assay, competition with immobilised ligand	96

Series 4
Organism: Sarcocystis neurona
Effect on: parasite growth
Concentration: 10 µM
Time: 96 h
Notes: first screen
Baseline: untreated
SMILES	log2 fold change
CCOC(=O)CCC(=O)O[C@H]1[C@H](O[C@@H]2[C@@H](C)[C@H](O[C@H]3C[C@@](C)(OC)[C@@H](O)[C@H](C)O3)[C@@H](C)C(=O)O[C@H](CC)[C@@](C)(O)[C@H](O)[C@@H](C)C(=O)[C@H](C)C[C@@]2(C)O)O[C@H](C)C[C@@H]1N(C)C	-0.3
CCC(=O)NS(=O)(=O)c1ccc(-c2c(-c3ccccc3)noc2C)cc1	0.00861
Cc1nc2ccc(CN(C)c3ccc(C(=O)N[C@@H](CCC(=O)O)C(=O)O)s3)cc2c(=O)[nH]1	0.11
CN(C)CCOC(c1ccccc1)c1ccccc1	-0.17
COC(=O)C1=C(C)NC(C)=C(C(=O)OC)C1c1ccccc1[N+](=O)[O-]	-0.1
Nc1ccn([C@H]2CC[C@@H](CO)O2)c(=O)n1	0.23
CCCC(=O)Nc1ccc(OCC(O)CNC(C)C)c(C(C)=O)c1 (stereo not drawn)	-0.19

Single results of other studies
Structure (SMILES)	cell line	test	setting	how to read	endpoint	result
CC(C)S(=O)(=O)c1ccc2nccc(Nc3ccc4sc(C5CCCC5)nc4c3)c2c1.Cl	L929	caspase activity, Ac-DEVD-pNA absorbance	50 µM, 0 h	higher = more activity	caspase-3 activity	0.007 a.u. and 0.018 a.u. and 0.005 a.u.

A few entries again (series 3):
target	test	remaining binding [%]
Calcium/calmodulin-dependent protein kinase kinase 2 (CAMKK2, Homo sapiens, UniProt Q96RR4)	cell-free assay, competition with immobilised ligand	100
Serine/threonine-protein kinase 32A (STK32A, Homo sapiens, UniProt Q8WU08)	cell-free assay, competition with immobilised ligand	76
Tyrosine-protein kinase JAK1, JH1 (JAK1, Homo sapiens, UniProt P23458)	cell-free assay, competition with immobilised ligand	100
Calcium/calmodulin-dependent protein kinase type 1B (PNCK, Homo sapiens, UniProt Q6P2M8)	cell-free assay, competition with immobilised ligand	79
Serine/threonine-protein kinase SIK1 (SIK1, Homo sapiens, UniProt P57059)	competition binding	91
